# Results collected from several papers.
# Parts stem from different laboratories: compare values within a part only.

# Block 1 — method: RNA Bind-n-Seq; molecule type: RNA; medium: in vitro; tested at: 365 nM; baseline: no-protein control; direction: higher = stronger binding
# Target: RNA binding protein fox-1 homolog 2, RRM domain, GST-SBP tag (RBFOX2, Homo sapiens, UniProt O43251-10, residues 100-194)
# Notes: natural RNA segment, single round, ends assumed
# Constant ends, left off below: GGGAGUUCUACAGUCCGACGAUC … UGGAAUUCUCGGGUGCCAA
# Residues (chain): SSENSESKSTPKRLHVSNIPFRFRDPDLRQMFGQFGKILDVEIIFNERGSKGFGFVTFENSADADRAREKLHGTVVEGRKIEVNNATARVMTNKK
Sequence,RBNS enrichment (R)
GUCAUAGGUAAUUUGGAACAUUUACAAGCCAUUUGUAAAAUUUUAAGAUAAUCUGUAACUAAUACAUAAAAACAACUUAGCAAAUGUGCCAUUUUCACACAACUUCUCUC,0.346
CGGGAACUUGUUAGAAAUGCACAUUCUCAGGCCACUCCCUAGACCUACUGAAUCAGAAACCCUGGGGUUGGAGCUCAGCAAUUACCCUGCAGGUAAUUCUGAUGCAUGCU,3
UUAUUAAUAUUAUUAUGACUUUUUGUAAGAGACUGAGGCAAGGCCACGCUUCGCUGCUACCACCCUGGGCUGGACUGGAGGGUGGGUGCGCCAACUCCCACGCAUUCGUG,0.404
GGUGACCCAUUUCCCCAGCCGUGUCGUCUCCAGGACCACCCGAUGGAAAUAACAGGCGGGCUUCACGGUGCGGCUCUGUCCGCCCAUGCCCCGCUGGGUCUGCAGGGAAC,0.17
AAAAUCUUACAGACUAGCUUUAGGAACAUAGUGUCAAACAAAGCUGCUGCUUUAGUCUUCUUUUCUUUGAUGCUUUGUUUAGAUGUUUAUAAGAAAUAGGUUUAUUUUUC,0.435
GCCUUCCCUGAGGAUGGCUCUGUUCCUUUGCUUGUUAGAAGAGCGAUGCCUUGGGCAGGGUUUCCCCCUUUUCAGAAUACAGGGUGUAAAGUCCAGCCUAUUACAAACAA,2.93
AGGACAGCGUGUGUGACACCCUGGCUGAGGCUGCUGCAGGUGGGCUGGAAGAGGCUCAGCGUUUGUGCUUGACUGCUGACCACCAGUGGUGCCAGAAGGCCUCAUCCUAC,1.79
CCUUGGCUGUCCUAGAACUCUAUGUAGAUCAUGCUGGUCUAGCGCUCACAGAGAUCAGAACUCUGUGUAGAUCACACUGGUCUAGAACUCAGAGUCUGCCUGCAUCUGUC,1.28

# Block 2 — method: protein binding microarray; molecule type: double-stranded DNA, one strand shown; medium: in vitro; tested at: not given; baseline: not given; direction: higher = stronger binding
# Target: Histone acetyltransferase KAT6A, winged helix 2, GST fusion (KAT6A, Homo sapiens, UniProt Q92794, residues 85-181)
# Notes: 8-mer, flanks averaged, mean of 2 arrays, mostly near background
# Target sequence (chain): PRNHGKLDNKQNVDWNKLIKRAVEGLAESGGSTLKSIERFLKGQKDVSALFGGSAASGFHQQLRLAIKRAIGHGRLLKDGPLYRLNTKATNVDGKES
Sequence,E-score
CAAGGCCA,-0.00784
AAGTTACC,0.107
GGGAGCCC,-0.0782
GTCAGCAC,-0.054
AGCTTTCG,-0.0314
CTCGGAAA,0.0222
CGGACTGA,-0.0514
ACTTCCTG,-0.177
ATGCGATG,-0.106
CACCGTGG,-0.0198
CAACGGAG,0.103
CCGTCAGA,-0.193
AAAAATGC,0.16
CAGCTTAC,-0.0261
AAATAGCG,-0.14
CCGCCCAG,0.191
AGTCGAAA,0.0636
CAAAACCC,0.0336
AATGTTAG,-0.243
AAGCGAGA,-0.0352
ATATCACA,-0.143
CTAAGCAA,-0.0785
CACGCTGC,-0.0295
ATCAGGAT,0.146
AATGAAGC,0.0562

# Block 3 — method: competition protein-binding microarray; molecule type: double-stranded DNA, one strand shown; medium: in vitro; tested at: 2 µM; together with: Pho4 competitor, 0.05 µM; direction: higher = stronger binding; constant ends, left off below: … GTCTTGATTCGCTTGACGCTGCTG
# Target: Centromere-binding protein 1, full length, His-tagged (CBF1, Saccharomyces cerevisiae, UniProt P17106, residues 1-351)
# Chain of UniProt P17106 (whole entry, looked up): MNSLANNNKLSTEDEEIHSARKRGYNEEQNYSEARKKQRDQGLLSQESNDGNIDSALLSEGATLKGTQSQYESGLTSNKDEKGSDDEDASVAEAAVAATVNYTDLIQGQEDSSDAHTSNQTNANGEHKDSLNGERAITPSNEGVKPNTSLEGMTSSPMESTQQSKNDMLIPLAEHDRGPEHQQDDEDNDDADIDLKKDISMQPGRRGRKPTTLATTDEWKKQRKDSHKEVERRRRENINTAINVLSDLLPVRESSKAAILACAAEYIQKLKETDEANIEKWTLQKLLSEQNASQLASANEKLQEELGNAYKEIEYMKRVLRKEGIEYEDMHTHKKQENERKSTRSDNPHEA
# Notes: whole 60-bp probe, lowest competitor level
Sequence,fluorescence intensity
TGGAACATCGCGAACATCGTGCCGACGCTGATAGTC,73.4 a.u.
CGTATGTCAGATCCTCGCATGATAAAAGAAATTATG,93.2 a.u.
TGATAGTTTTTCTCCCTCGTGAAGCAGCATGTTTTA,105 a.u.
CATTTATTCTCTACCCATGTGGTGCCTGCCAGATCC,137 a.u.
CGTCCTAGTGATTGGAATGTGGGTGCCATGAGGAAG,77.5 a.u.
ACTGCCATGGGTTTTGGCGTGGGTATGTTCACCTCA,61.8 a.u.
TTGACGAAACTATGCTGTGTGTGGCCAGGCGAACAA,56.7 a.u.
GGCCGCCCATGGCCGCATGTGAGCAACGTCGACATT,77.2 a.u.
TGTGCTTGATAGCTTACCGTGCAAAAAATAATGGGT,100 a.u.
TTGTACATTTTCCATCACGTGCAAAATTTGTTTCAA,7620 a.u.
TTTCGGTTTTTATCGCACGTTTCTTTTTGGTGAGCG,150 a.u.
GAACAAGACAATCCACACGGGATTTTGACGCCCCTA,89.8 a.u.
CGTCCTAGTGATTGTATCGTGGGTGCCATGAGGAAG,76.2 a.u.
CGTCCTAGTGATTGTCACTTTACTTCCATGAGGAAG,90.9 a.u.
CAAAGAAAATGCTCCCTCGTGGCCGTCCATCCAGGC,72.9 a.u.
GAAGGAGTGCGGGACCCCGTGGGTACCGCATCCCTT,85.1 a.u.
CGTCCTAGTGATTGTCACTGAACTTCCATGAGGAAG,89.2 a.u.
CATACCCAACCTTGTCACTTAACTTAAGATATTTGT,85.7 a.u.
GTCTTGTCTCATTGTAATGTGGGTGTCCCCACTTCA,81.8 a.u.

# Block 4 — method: RNA Bind-n-Seq; molecule type: RNA; medium: in vitro; tested at: not given; baseline: input RNA pool; direction: higher = stronger binding
# Target: RING finger protein unkempt homolog, zinc fingers 1-6, GST-SBP tag (UNK, Homo sapiens, UniProt Q9C0B0, residues 30-357)
# Chain of UniProt Q9C0B0 (30-357, looked up): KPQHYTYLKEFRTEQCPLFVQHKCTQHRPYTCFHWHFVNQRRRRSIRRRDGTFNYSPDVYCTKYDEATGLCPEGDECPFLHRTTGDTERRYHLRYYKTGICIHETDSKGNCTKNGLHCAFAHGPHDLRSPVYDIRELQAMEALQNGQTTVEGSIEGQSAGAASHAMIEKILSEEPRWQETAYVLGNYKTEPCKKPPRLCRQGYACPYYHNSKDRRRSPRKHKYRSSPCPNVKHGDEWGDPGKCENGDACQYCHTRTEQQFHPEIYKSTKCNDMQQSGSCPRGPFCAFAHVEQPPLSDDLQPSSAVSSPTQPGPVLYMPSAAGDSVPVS
# Notes: RNA with constant flanks, human and mouse sites, ends assumed
# Constant ends, left off below: GGGAGUUCUACAGUCCGACGAUC … CAACAGAGGAUUGAGCAUCA
Sequence,bound/input enrichment
AUUCAUUUUUAAUUUUAAUUUUAUUUUAUACAAUGUGUAGACAGUUCCCUGUUCUCUGCAUUUAGAAGUAUACACAAUAUAAAUCUGUUAAUUCUGUAAGUAAUUUUUAUAAUUAUGAUG,33.6 ratio
UGUUUUAAUUUAUUUGAGACUGGAUUUUAUCACUCAGAGUUAAACCCCAUGUGCAGCGAAGAAUCCGAAAGACCAGCAAAGAGAUUGAAGAUGGGCAUUGCUGUCCCCGAAUCCUUUAUG,0.156 ratio
CUCAUGCAGAAGGAUUUUGUCUCCCCGGACUAUUUGAAGAAGUGGUCAGCUAAAGGAAUCCAGGUUGUGAGUUGGACUGUCAAUACCUUUGAUGAAAAGAAUUACUACGAGUCCCACCUU,0.102 ratio
UGUGUGAUCUGUGAUUCCUACGUGCGUCCCUGCACCCUGGUCCGCAUAUGUGAUGAGUGUAACUAUGGAUCUUACCAGGGCCGGUGUGUAAUCUGUGGCGGCCCCGGAGUCUCCGAUGCC,0.116 ratio
GAUGCCCGCACAAAACAGCUGAGGCAGCUACUGGAGAAGGUGCAAAACAUGUCUCAAUCCAUAGAAGUCUUGGACAGGCGAACUCAGAGAGACCUGCAGUACGUGGAGAAGAUGGAGAAC,0.268 ratio
UGUGGAAUCAAGCACCUUCACUCUGCUGGAAUUAUUCAUCGGGACUUAAAGCCUAGUAAUAUAGUAGUCAAAUCAGACUGCACUUUGAAGAUUCUUGAUUUUGGACUGGCGAGGACUGCA,0.558 ratio
UUUAAAACAAAAAAUAUAUUAAUUUACAUAUAAGGGGAUUUAUGAUAAUUGUAUUAUAUCUAGUUGAGUUUCAUAUUCUUAAUUAGCCUGUAAAUAAAAAUGACAUAUUCUACAUUAAAG,1.23 ratio
AACUAAGCACAGAAGAGUUGGCGUCAUCUUAAAAAUACCAAAUAACAGAAGAUCGCAUUGCAGAUGAUAUCAGGAUGUGGUUUCCAGCUUUGCCUGAGGGAAUUCCAACAUGAGAUUAUG,0.154 ratio

# A few entries again (block 4):
Sequence,bound/input enrichment
UGUGUGAUCUGUGAUUCCUACGUGCGUCCCUGCACCCUGGUCCGCAUAUGUGAUGAGUGUAACUAUGGAUCUUACCAGGGCCGGUGUGUAAUCUGUGGCGGCCCCGGAGUCUCCGAUGCC,0.116 ratio
GAUGCCCGCACAAAACAGCUGAGGCAGCUACUGGAGAAGGUGCAAAACAUGUCUCAAUCCAUAGAAGUCUUGGACAGGCGAACUCAGAGAGACCUGCAGUACGUGGAGAAGAUGGAGAAC,0.268 ratio
UGUGGAAUCAAGCACCUUCACUCUGCUGGAAUUAUUCAUCGGGACUUAAAGCCUAGUAAUAUAGUAGUCAAAUCAGACUGCACUUUGAAGAUUCUUGAUUUUGGACUGGCGAGGACUGCA,0.558 ratio
UUUAAAACAAAAAAUAUAUUAAUUUACAUAUAAGGGGAUUUAUGAUAAUUGUAUUAUAUCUAGUUGAGUUUCAUAUUCUUAAUUAGCCUGUAAAUAAAAAUGACAUAUUCUACAUUAAAG,1.23 ratio
